# Measurements pooled from the literature.
# Each line is one published result; not all experiments were run side by side. Values joined by “and” are separate records of one study, mostly repeats; a detail may differ. Numbers after ± are the reported error.
Structure (SMILES),assay,system,conditions,how to read,quantity,result
CN(C)C(=O)Nc1cccc(-c2ccc(N(C)C)cc2)c1,,mouse high-fat diet,dose not given,relative to: body weight,iWAT weight,4.12% and 3.78% and 5.16% and 4.35% and 3.36% and 4.73%
Cc1ccc(C(=O)OCc2ccc([C@@H](CN)C(=O)Nc3ccc4cnccc4c3)cc2)c(C)c1,tonometry,"Macaca cyclopis, ocular normotensive","ocular, 0.02%, 48 h",,IOP,18.4 mmHg
OC[C@H]1O[C@@H](c2ccc(F)c(Cc3cc4ccccc4s3)c2)[C@H](O)[C@@H](O)[C@@H]1O,continuous glucose monitoring,Japanese type 1 diabetes patients,"100 mg/day, day 1",relative to: baseline,time glucose at most 70 mg/dL,-1.04 ± 10.5 % change
C[C@H](Oc1ccc(Br)cc1-c1ccon1)C(=O)O,muscle velocity recovery cycles,"human, tibialis anterior muscle","1200 mg single dose, 3.5 h post-dose, frequency ramp, last response at 15 Hz",relative to: placebo,peak amplitude change,6.98%
C[C@@H]1CCC[C@H](n2cnc(-c3cc(Cl)ccc3-n3cc(Cl)nn3)cc2=O)c2cc(ccn2)-c2c(cnn2C(F)F)NC1=O,,pooled normal human plasma,"IC2× aPTT, STA-PTT reagent",,concentration for aPTT prolongation,1400 nM
COc1ccc2c(c1)CC[C@@H]1[C@@H]2CC[C@]2(C)[C@@H](NCCCCCCN3C(=O)C=CC3=O)CC[C@@H]12,immunostaining,"humanized mouse, SAH model, meningeal F4/80+ macrophages",dose not given,,p-PKA level,8.21 MFI and 4.79 MFI and 6.79 MFI
C[C@H]1O[C@@H](O[C@H]2CC[C@@]3(C)[C@@H](CC[C@]4(C)[C@@H]3C=C[C@]35OC[C@@]6(CCC(C)(C)C[C@H]63)[C@@H](O)C[C@]54C)[C@]2(C)CO)[C@H](O)[C@@H](O[C@@H]2O[C@H](CO)[C@@H](O)[C@H](O)[C@H]2O)[C@H]1O,"qRT-PCR, refers to: SIRT1","mice, normal diet, liver","dose not given, high dose",relative to: control mice,mRNA level,0.935 fold change and 0.895 fold change and 1.52 fold change
CC(C)C[C@@H](NC(=O)[C@H](C)NC(=O)CNC(=O)[C@@H](NC=O)C(C)C)C(=O)N[C@@H](C)C(=O)N[C@@H](C(=O)N[C@H](C(=O)N[C@@H](C(=O)N[C@@H](Cc1c[nH]c2ccccc12)C(=O)N[C@H](CC(C)C)C(=O)N[C@@H](Cc1ccc2[nH]ccc2c1)C(=O)N[C@H](CC(C)C)C(=O)N[C@@H](Cc1c[nH]c2ccccc12)C(=O)N[C@@H](C(=O)N[C@@H](Cc1c[nH]c2ccccc12)C(=O)NCCO)C(C)C)[C@H](C)O)C(C)C)C(C)C,"H+/Na+ transport, pyranine pH-gradient",EYPC/cholesterol LUVs 2:1,,,EC50,114 ± 22.7 nM
CSCCNc1nc(SCCC(F)(F)F)nc2c1ncn2[C@@H]1O[C@H](COP(=O)(O)OP(=O)(O)C(Cl)(Cl)P(=O)(O)O)[C@@H](O)[C@H]1O,"platelet aggregation, light transmittance aggregometry","human, platelet-rich plasma","dose not given, 30 min, IPA above 90 %, together with: TRAP 15 µM",relative to: patients,patients with IPA above threshold,0%
COc1nnc2ccc(N3CCC(c4ccc(OCCN5CCN(C)C(=O)[C@H]5C)cc4)CC3)nn12,,human patients,"40 mg once daily, 1.5-fold above baseline",,time above HEXIM1 threshold,6.97 h
O=C1N(Cc2ccccc2Cl)c2ccccc2C12NN=C(c1ccccc1)S2 (stereo not drawn),,"MDA-MB-231 xenograft, mouse","intravenous, 470 mg/kg total, once daily dosing",,T/C,81%
O=C(O)CNC(=O)Cc1ccccc1,,"ventricular cardiomyocytes, C57BL/6 mouse","dose not given, 0.544 s",,sarcomere length,1.62 µm
CN(C(=O)n1cnc(-c2ccc[n+]([O-])c2)c1)C1CCCCC1,refers to: PEA,"human, plasma","20 mg once daily, day 10",,AUC(0-tau),129 ng·h/mL
C[C@@H](O)CCOC(=O)C[C@@H](C)O,,human,"oral drink, dose not given, 60 min post dose, median, all participants",,plasma glucagon,19 pM
C[C@H]1C[C@H]2CSC(N)=N[C@@]2(c2nc(NC(=O)c3ccc(OC(F)F)cn3)cs2)CO1,refers to: Aβ1-40,"healthy adults, plasma","40 mg single dose, 8 h post-dose",relative to: placebo,percent change from baseline,-69%
[Cl-].[Cl-].[Pt+2].[Ru+2].c1ccc(-c2nc3ccccc3nc2-c2ccccn2)nc1.c1cnc2c(c1)ccc1cccnc12.c1cnc2c(c1)ccc1cccnc12,"chloride substitution, UV-vis kinetics",aqueous buffer,"concentration not given, pH 7.2, first substitution step, together with: thiourea",,negative activation entropy,166 ± 4 J/(mol·K)
Cc1n[nH]c2ccc(-c3cc(OC[C@@H](N)Cc4ccccc4)cnc3-c3ccoc3)cc12,"kinase binding, competitor, MIB/MS competition, refers to: HRK1",Candida albicans cell lysate,1 µM,relative to: DMSO,log2 fold change,0.0301
O[C@H]1CCCN[C@@H]1CCCn1cnc2c(Cl)c(Cl)ccc21,"ELISA, refers to: Pro-C3","healthy human volunteers, serum","intraduodenal, 200 mg twice daily, day 14, multiple ascending dose",,AUC(0-tau),147 ng·h/mL

# For quick reference, copied from above:
Structure (SMILES),assay,system,conditions,how to read,quantity,result
C[C@H]1O[C@@H](O[C@H]2CC[C@@]3(C)[C@@H](CC[C@]4(C)[C@@H]3C=C[C@]35OC[C@@]6(CCC(C)(C)C[C@H]63)[C@@H](O)C[C@]54C)[C@]2(C)CO)[C@H](O)[C@@H](O[C@@H]2O[C@H](CO)[C@@H](O)[C@H](O)[C@H]2O)[C@H]1O,"qRT-PCR, refers to: SIRT1","mice, normal diet, liver","dose not given, high dose",relative to: control mice,mRNA level,0.935 fold change and 0.895 fold change and 1.52 fold change
C[C@@H](O)CCOC(=O)C[C@@H](C)O,,human,"oral drink, dose not given, 60 min post dose, median, all participants",,plasma glucagon,19 pM
